Experimental data gathered from unrelated publications.
Protocols differ between the studies behind these lines.
Organism: Enterococcus faecium

`O=C(c1ccccc1O)c1[nH]c(Cl)c(Cl)c1-n1c(C(=O)c2ccccc2O)cc(Cl)c1Cl` has an MIC of 8 µM (ATCC 6569).
`C=C1NC(=O)C2C[S+]([O-])CC3NC(=O)C(CSC(C)C(NC(=S)C(Cc4cnc[nH]4)NC(=O)c4csc(C(C)NC(C)=O)n4)C(=O)N[C@H](CC(C)C(=O)NC(=O)CC(C(=O)O)NC(=O)C(C)NC3=O)C(=O)N2)NC(=O)[C@@H]2CCCN2C(=O)[C@@H](CC(C)C)NC1=O` (some centres unmarked) has an MIC of over 32 µg/mL (BM4147-1).
With `C#CCOc1ccc(CN[C@@]2(C)C[C@H](O[C@H]3[C@H](Oc4c5cc6cc4Oc4ccc(cc4Cl)[C@@H](O)[C@@H](NC(=O)[C@@H](CC(C)C)NC)C(=O)N[C@@H](CC(N)=O)C(=O)N[C@H]6C(=O)N[C@H]4C(=O)N[C@H](C(=O)N[C@H](C(=O)NCC(N)=O)c6cc(O)cc(O)c6-c6cc4ccc6O)[C@H](O)c4ccc(c(Cl)c4)O5)O[C@H](CO)[C@@H](O)[C@@H]3O)O[C@@H](C)[C@H]2O)cc1OC` the MIC was 32 µg/mL (broth microdilution; vancomycin-resistant vanB, tryptic soy broth; 20 to 24 h, 37 °C, 0.002% polysorbate 80).
`CC(C)CCCCCCCCC/C=C/C(=O)N[C@@H](CC(=O)O)C(=O)N[C@H]1CNC(=O)[C@@H]2CCCN2C(=O)[C@H](C(C)C)NC(=O)[C@@H](CN)NC(=O)CNC(=O)[C@H](CC(=O)O)NC(=O)CNC(=O)[C@H](CC(=O)O)NC(=O)[C@H](CC(=O)O)NC(=O)[C@H]2CCCCN2C1=O` gave an MIC of 4 µg/mL (broth microdilution; daptomycin-resistant isolate, Mueller-Hinton broth, Mg2+ 10 mg/L; 16 h, together with: Ca2+ 2.5 mM).
With `CC(=CC(C)CCCCC(=O)O)C1OC2C=CC1OC(=O)C=CC=CC=CC1OC3CC1OC(C=CCC1OC(CC(O)C1C)C(O)C(O)C=CCCC=CC2)C3C` (centres unmarked) the MIC was 0.15 µM (microbial growth; DSM20477).
With `CC(C)CCCCCCCCC/C=C/C(=O)N[C@@H](CC(N)=O)C(=O)N[C@H]1CNC(=O)[C@@H]2CCCN2C(=O)[C@H](C(C)C)NC(=O)[C@@H](CN)NC(=O)CNC(=O)[C@H](CC(=O)O)NC(=O)CNC(=O)[C@H](CC(=O)O)NC(=O)[C@H](CC(=O)O)NC(=O)[C@H]2CCCCN2C1=O` the MIC was 2 µg/mL (broth microdilution; daptomycin-resistant isolate, Mueller-Hinton broth, Mg2+ 10 mg/L; 16 h, together with: Ca2+ 10 mM).
`CN[C@H](CC(C)C)C(=O)N[C@H]1C(=O)N[C@@H](CC(N)=O)C(=O)N[C@H]2C(=N)N[C@H]3C(=O)N[C@H](C(=O)N[C@H](C(=O)NCCCNC(=N)N)c4cc(O)cc(O)c4-c4cc3ccc4O)[C@H](O)c3ccc(c(Cl)c3)Oc3cc2cc(c3O[C@@H]2O[C@H](CO)[C@@H](O)[C@H](O)[C@H]2O[C@H]2C[C@](C)(NCc3ccc(-c4ccc(Cl)cc4)cc3)[C@H](O)[C@H](C)O2)Oc2ccc(cc2Cl)[C@H]1O` has an MIC of 0.04 µg/mL (BAA-2317 VanA).
`CN[C@H](CC(C)C)C(=O)N[C@H]1C(=O)N[C@@H](CC(N)=O)C(=O)N[C@H]2C(=O)N[C@H]3C(=O)N[C@H](C(=O)N[C@H](C(=O)N[C@@H](CCCNC(=N)N)C(N)=O)c4cc(O)cc(O)c4-c4cc3ccc4O)[C@H](O)c3ccc(c(Cl)c3)Oc3cc2cc(c3O[C@@H]2O[C@H](CO)[C@@H](O)[C@H](O)[C@H]2O[C@H]2C[C@](C)(NCc3ccc(OCc4cn(CC(=O)N[C@H](C(=O)N[C@@H](CCN)C(=O)N[C@H]5CCNC(=O)[C@H]([C@@H](C)O)NC(=O)[C@H](CCN)NC(=O)[C@H](CCN)NC(=O)[C@H](CC(C)C)NC(=O)[C@@H](CC(C)C)NC(=O)[C@H](CCN)NC5=O)[C@@H](C)O)nn4)c(OC)c3)[C@H](O)[C@H](C)O2)Oc2ccc(cc2Cl)[C@H]1O` gave an MIC of 0.01 µM (VRE vanB).
`CC[C@H](C)[C@H](NC(=O)[C@@H](CCC(=O)O)NC(=O)[C@H](CC(C)C)NC(=O)c1cccc(-c2ccccn2)n1)C(=O)N[C@H]1CCCCNC(=O)[C@H](CC(N)=O)NC(=O)[C@@H](CC(=O)O)NC(=O)[C@H](Cc2c[nH]cn2)NC(=O)[C@@H](Cc2ccccc2)NC(=O)[C@H]([C@@H](C)CC)NC(=O)[C@@H](CCCN)NC1=O` has an MIC of over 64 µg/mL (VanB vancomycin-resistant; 18 h, 37 °C, 0.3 mM ZnSO4 LB).
`CC[C@H](C)[C@@H]1NC(=O)[C@@H]([C@@H](C)O)NC(=O)CNC(=O)[C@H](CC(=O)O)NC(=O)CNC(=O)[C@H](CC(=O)O)NC(=O)CNC(=O)[C@H]2CCCCN2C(=O)[C@@H](NC(=O)[C@H](CC(=O)O)NC(=O)/C=C/CCCCCCCCCC(C)C)CNC(=O)[C@@H]2CCCN2C1=O` gave an MIC of 8 µg/mL (broth microdilution; daptomycin-resistant isolate, Mueller-Hinton broth, Mg2+ 10 mg/L; 16 h, together with: Ca2+ 5 mM).
For `CC[C@H](C)[C@H](N)C(=O)N[C@@H](CCCNC(=N)N)C(=O)N[C@H](C(=O)N[C@@H](Cc1c[nH]c2ccccc12)C(=O)N[C@@H](CCCCN)C(=O)N[C@@H](CCCCN)C(=O)N[C@H](C(=O)N[C@H](C(=O)N[C@@H](CCCNC(=N)N)C(=O)N[C@@H](CCCCN)C(=O)N[C@@H](Cc1c[nH]c2ccccc12)C(=O)N[C@@H](CCCCN)C(=O)N[C@@H](C)C(=O)N[C@H](C(=O)N[C@@H](Cc1c[nH]c2ccccc12)C(=O)N[C@@H](Cc1c[nH]cn1)C(N)=O)[C@@H](C)CC)C(C)C)[C@@H](C)CC)C(C)C`, the MIC was 25 µM (broth dilution; KCTC 13225).
The MIC of `CN[C@H](CC(C)C)C(=O)N[C@H]1C(=O)N[C@@H](CC(N)=O)C(=O)N[C@H]2C(=O)N[C@H]3C(=O)N[C@H](C(=O)N[C@H](C(=O)O)c4cc(O)cc(O)c4-c4cc3ccc4O)[C@H](O)c3ccc(c(Cl)c3)Oc3cc2cc(c3O[C@@H]2O[C@H](CO)[C@@H](O)[C@H](O)[C@H]2O[C@H]2C[C@](C)(NCc3ccc(OCc4cn(CCCCC(=O)N[C@H](C(=O)N[C@@H](CCN)C(=O)N[C@H]5CCNC(=O)[C@H]([C@@H](C)O)NC(=O)[C@H](CCN)NC(=O)[C@H](CCN)NC(=O)[C@H](CC(C)C)NC(=O)[C@@H](CC(C)C)NC(=O)[C@H](CCN)NC5=O)[C@@H](C)O)nn4)c(OC)c3)[C@H](O)[C@H](C)O2)Oc2ccc(cc2Cl)[C@H]1O` is reported as 3 µM (VRE vanB).
`CC[C@H](C)[C@H](N)C(=O)NCC(=O)N[C@@H](CC(C)C)C(=O)N[C@H](CCC(=O)O)C(=O)N[C@H](C(=O)N[C@H]1CCCCNC(=O)[C@H](CC(N)=O)NC(=O)[C@@H](CC(=O)O)NC(=O)[C@H](Cc2c[nH]cn2)NC(=O)[C@@H](Cc2ccccc2)NC(=O)[C@H]([C@@H](C)CC)NC(=O)[C@@H](CCCN)NC1=O)[C@@H](C)CC` gave an MIC of over 64 µg/mL (VanB vancomycin-resistant; 18 h, 37 °C, 0.3 mM ZnSO4 LB).
`C#CCOc1ccc(CN[C@@]2(C)C[C@H](O[C@H]3[C@H](Oc4c5cc6cc4Oc4ccc(cc4Cl)[C@@H](O)[C@@H](NC(=O)[C@@H](CC(C)C)NC)C(=O)N[C@@H](CC(N)=O)C(=O)N[C@H]6C(=O)N[C@H]4C(=O)N[C@H](C(=O)N[C@H](C(=O)O)c6cc(O)cc(O)c6-c6cc4ccc6O)[C@H](O)c4ccc(c(Cl)c4)O5)O[C@H](CO)[C@@H](O)[C@@H]3O)O[C@@H](C)[C@H]2O)cc1OC` has an MIC of 64 µg/mL (broth microdilution; vancomycin-resistant vanB, tryptic soy broth; 20 to 24 h, 37 °C, 0.002% polysorbate 80).
For `CCCCCCC#Cc1cncc(-c2nnc(SCc3cc([N+](=O)[O-])cc([N+](=O)[O-])c3)n2C)c1`, the MIC was over 64 µg/mL (broth microdilution; ATCC 51559 MDR VRE; 18 to 24 h, 37 °C).
The MIC of `CN[C@H](CC(C)C)C(=O)N[C@H]1C(=O)N[C@@H](CC(N)=O)C(=O)N[C@H]2C(=O)N[C@H]3C(=O)N[C@H](C(=O)N[C@H](C(=O)NCc4cn(CC(=O)N[C@H](C(=O)N[C@@H](CCN)C(=O)N[C@H]5CCNC(=O)[C@H]([C@@H](C)O)NC(=O)[C@H](CCN)NC(=O)[C@H](CCN)NC(=O)[C@H](CC(C)C)NC(=O)[C@@H](CC(C)C)NC(=O)[C@H](CCN)NC5=O)[C@@H](C)O)nn4)c4cc(O)cc(O)c4-c4cc3ccc4O)[C@H](O)c3ccc(c(Cl)c3)Oc3cc2cc(c3O[C@@H]2O[C@H](CO)[C@@H](O)[C@H](O)[C@H]2O[C@H]2C[C@](C)(N)[C@H](O)[C@H](C)O2)Oc2ccc(cc2Cl)[C@H]1O` is reported as 0.8 µM (VRE vanB).
`CC[C@H](C)[C@H](NC(=O)[C@H](Cc1c[nH]c2ccccc12)NC(=O)[C@H](Cc1ccc(O)cc1)NC(=O)[C@H](CCCCN)NC(=O)[C@H](CC(C)C)NC(=O)[C@H](CO)NC(=O)[C@@H](N)Cc1ccccc1)C(=O)N[C@@H](CCCNC(=N)N)C(=O)N[C@@H](Cc1ccc(O)cc1)C(=O)N[C@@H](CCCCN)C(=O)N[C@@H](CCCNC(=N)N)C(=O)N[C@@H](CCC(N)=O)C(=O)NCC(=O)N[C@@H](C)C(=O)N[C@@H](C)C(=O)N[C@@H](CCCNC(=N)N)C(=O)N[C@@H](Cc1ccccc1)C(N)=O` gave an MIC of 25 µM (broth dilution; KCTC 13225).

Some of these lines once more:
`CC[C@H](C)[C@H](N)C(=O)NCC(=O)N[C@@H](CC(C)C)C(=O)N[C@H](CCC(=O)O)C(=O)N[C@H](C(=O)N[C@H]1CCCCNC(=O)[C@H](CC(N)=O)NC(=O)[C@@H](CC(=O)O)NC(=O)[C@H](Cc2c[nH]cn2)NC(=O)[C@@H](Cc2ccccc2)NC(=O)[C@H]([C@@H](C)CC)NC(=O)[C@@H](CCCN)NC1=O)[C@@H](C)CC` gave an MIC of over 64 µg/mL (VanB vancomycin-resistant; 18 h, 37 °C, 0.3 mM ZnSO4 LB).
